Experimental data gathered from unrelated publications.
Each numbered part is a random draw from the data of one study; scales do not carry over between parts.

Series 1
Target: Histone acetyltransferase KAT6A, both winged helices, GST fusion (KAT6A, Homo sapiens, UniProt Q92794, residues 1-181)
Technique: protein binding microarray
Molecule type: double-stranded DNA, one strand shown
Sample: in vitro
Tested at: not given
Notes: 8-mer, flanks averaged, mean of 2 arrays, mostly near background
Relative to: not given
Reading: higher = stronger binding
Residues (chain): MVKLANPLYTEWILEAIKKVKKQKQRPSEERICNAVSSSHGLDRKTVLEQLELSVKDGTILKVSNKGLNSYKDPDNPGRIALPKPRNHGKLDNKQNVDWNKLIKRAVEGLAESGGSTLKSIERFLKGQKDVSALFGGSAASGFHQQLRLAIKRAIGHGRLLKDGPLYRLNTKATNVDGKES
Sequence | E-score
ACATAAAT | -0.0644
ATAGGACC | -0.0569
CGGATTAA | 0.144
ACAAGGGA | -0.19
CTCTCCGA | 0.0393
CGGTAAGA | 0.163
AACCTACG | -0.0742
CCAACCAG | -0.133
GGTAACGA | 0.035
AAGAGACA | -0.158
AATGCGGT | 0.193
TCTCGGAA | 0.0153
CTTATTTC | -0.153
CGAGGATC | 0.0447
CTAGATAA | -0.288
CATCTAGG | -0.222
AGGCGGGA | 0.186
ATTGAATG | -0.119
GTTTATTA | 0.109
ATGGATCG | 0.147
CCGCGTTA | 0.312
ACGTGAAG | 0.0251

Series 2
Target: Max-binding protein MNT, bHLH-zipper, MAX partner unstated (MNT, Homo sapiens, UniProt Q99583, residues 220-300)
Technique: protein-binding microarray
Molecule type: double-stranded DNA, one strand shown
Sample: in vitro
Tested at: not given
Notes: k-mer, scored over probes, only values ≥0.25
Reading: higher = stronger binding
Residues (chain): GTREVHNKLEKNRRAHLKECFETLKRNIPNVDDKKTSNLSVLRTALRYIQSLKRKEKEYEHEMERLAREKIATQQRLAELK
Sequence | E-score
ACGTTCCC | 0.263
GTGGGGCA | 0.32
GCTTAACA | 0.3
AACATGTT | 0.272
TAGCCCCA | 0.307
GTGGGCGA | 0.257
CGTGGGTA | 0.331
CACGCATG | 0.44
CGTGCACG | 0.457
CTCCATGC | 0.389
TCATGCGA | 0.252
CCCATGCG | 0.419
CAGGTGAC | 0.334
ACGCCCGA | 0.263
GACGTGGC | 0.263
CGATCACG | 0.277

Series 3
Target: Sal-like protein 4, full length isoform A (SALL4, Homo sapiens, UniProt Q9UJQ4, residues 1-1053)
Sequence of UniProt Q9UJQ4 (whole entry, looked up): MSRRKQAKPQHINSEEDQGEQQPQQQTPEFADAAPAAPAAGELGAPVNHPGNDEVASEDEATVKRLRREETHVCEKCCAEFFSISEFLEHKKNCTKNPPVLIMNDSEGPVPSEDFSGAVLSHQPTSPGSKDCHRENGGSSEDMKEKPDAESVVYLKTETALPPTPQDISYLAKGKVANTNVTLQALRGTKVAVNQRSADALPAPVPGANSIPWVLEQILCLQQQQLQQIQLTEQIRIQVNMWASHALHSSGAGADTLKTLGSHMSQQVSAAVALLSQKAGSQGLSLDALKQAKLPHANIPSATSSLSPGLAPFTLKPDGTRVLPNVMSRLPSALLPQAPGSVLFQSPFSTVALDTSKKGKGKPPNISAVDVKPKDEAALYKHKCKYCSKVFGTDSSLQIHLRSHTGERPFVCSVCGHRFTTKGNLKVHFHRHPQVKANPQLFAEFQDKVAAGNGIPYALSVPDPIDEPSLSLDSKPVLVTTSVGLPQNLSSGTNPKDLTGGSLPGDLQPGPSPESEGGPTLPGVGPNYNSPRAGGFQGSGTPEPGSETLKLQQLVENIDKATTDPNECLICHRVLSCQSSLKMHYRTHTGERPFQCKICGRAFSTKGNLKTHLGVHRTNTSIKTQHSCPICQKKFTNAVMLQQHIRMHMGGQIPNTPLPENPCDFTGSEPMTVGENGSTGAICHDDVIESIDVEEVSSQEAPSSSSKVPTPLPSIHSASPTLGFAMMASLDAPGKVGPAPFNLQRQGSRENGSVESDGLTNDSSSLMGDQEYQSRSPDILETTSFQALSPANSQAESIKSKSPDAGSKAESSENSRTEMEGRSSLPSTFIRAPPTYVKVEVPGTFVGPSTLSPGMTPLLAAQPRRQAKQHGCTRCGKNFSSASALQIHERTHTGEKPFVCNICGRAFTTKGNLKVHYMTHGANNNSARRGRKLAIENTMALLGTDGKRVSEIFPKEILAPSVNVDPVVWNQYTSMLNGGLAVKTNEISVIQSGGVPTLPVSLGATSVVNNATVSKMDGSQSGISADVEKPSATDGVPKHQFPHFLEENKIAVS
Technique: universal PBM
Molecule type: double-stranded DNA, one strand shown
Sample: in vitro
Tested at: 600 nM
Notes: 8-mer, flanks averaged, mean of replicates
Reading: higher = stronger binding
Sequence | E-score
ATGATGAC | 0.128
CGTGACTA | 0.149
AAGCTTCT | 0.0944
ATCCCAAG | -0.118
AACCAGAT | 0.0615
AACATCTG | 0.0865
CGGGGGCA | -0.236
ATAGACGC | 0.158
ATCGACTC | -0.00962
AACCCCCC | -0.347
GACATGTA | 0.184
CACGACTA | -0.0756
CCCGTCGA | -0.18
AACGTGCG | -0.101
CCTAGTTA | 0.00675
CTTTGGGA | 0.0163
GCGTCGAA | -0.0834
GCGTTTCC | -0.155
ATTGCCAG | 0.0769
CCGTAGCA | 0.0206
GGAGTGCC | -0.271
CCGGAGCA | -0.246
CTCCTCGC | -0.218

Series 4
Target: RNA binding protein fox-1 homolog 2, RRM domain, GST-SBP tag (RBFOX2, Homo sapiens, UniProt O43251-10, residues 100-194)
Technique: RNA Bind-n-Seq
Molecule type: RNA
Sample: in vitro
Tested at: 365 nM
Notes: natural RNA segment, single round, ends assumed
Relative to: no-protein control
Reading: higher = stronger binding
Residues (chain): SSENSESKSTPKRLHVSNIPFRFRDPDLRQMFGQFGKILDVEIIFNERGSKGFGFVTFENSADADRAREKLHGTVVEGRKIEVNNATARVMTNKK
Sequence | RBNS enrichment (R)
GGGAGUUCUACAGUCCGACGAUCUUUGUCAUCAGACAAGGACUUUGAUCCUGUCCCCUUUGGCAUGCGGGAAGCAGCCGCGGGGAGGUAAUGAAUUGUCUGUGGUAUCAUGUCAGCAGAGUCUCCAAGCCCCAUGGAAUUCUCGGGUGCCAA | 0.545
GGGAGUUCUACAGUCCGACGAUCAUGCCCUGCCGUGGUGGCAGCUGGGGCUGUGGAUGGGAGGGGUCCCCAACAUGGAUGUGUUGCCCCUCCUCCGCAUGCCAACGCAGUUCAUGUACAAGGCCCCUCUGCAAUGGAAUUCUCGGGUGCCAA | 1.7
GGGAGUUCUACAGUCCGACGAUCCCCUCAAAGAGUCUAAAACGUCUCAUUUUUUUUUACCACGUCCUCCCCAGUAAGAAGCCAAGGUACAACUCAUUGUACCUACGAGGUACAAACUCAUUUGUAGAAACAAAUGGAAUUCUCGGGUGCCAA | 0.5
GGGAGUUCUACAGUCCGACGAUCCUCUGAACUAAAGUAGUAACCUCCCAAAUUGUUUUUUCUAAUAAGCUGAGAUUCCCAUUUCUCUUAAGGAGAAGCCACCCAUGAGAUGUCUUUUCCUUCUCCAUCAUCUUUGGAAUUCUCGGGUGCCAA | 0.6
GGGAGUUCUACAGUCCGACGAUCCUGGUGACAUGGCACCACUCAGCAGUGCUGUCACUGUAAGCAUGGACUCCCAGGAGACAGUGUGGGAAACGCUCCUGCUUUAAUUCCCCGAGAAACGGCUCUUCCUGCCUUGGAAUUCUCGGGUGCCAA | 0.929
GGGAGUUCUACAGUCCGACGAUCUAAAGAGACCUCAGUUUAUAGCGUAACAGACUACACAAUGCACUGAUGUUUUCAUAAUGUUUAAGGGACCCACUGCAAGAAGCUUGCUGCCUCCUUUUAAUUGUAUUCAUUGGAAUUCUCGGGUGCCAA | 0.76
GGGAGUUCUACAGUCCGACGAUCUCAGAAUGCUAUAUUUUUAACAGCACUCCAGCAUUUUUCUUCAUGUAUCACCUUCACUGACUCCAUUGAGUCAUUGAGCAUCUGUACAUAUCCUUCACCACCCCCAGUCCUGGAAUUCUCGGGUGCCAA | 0.821
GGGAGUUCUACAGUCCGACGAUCUAUGAUUUGCUUUUGACGUCUGUCCUAGUGAUGUGUGUUGUCUGCUGGCAUGCUUGCAGCACAUGUCCAUUAAAGGUCAUUUUGUUUAUUUGUUGGCAUGCUUACAACACUGGAAUUCUCGGGUGCCAA | 1.6
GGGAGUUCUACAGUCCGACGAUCAGCCUGUGAGCCUAGGAGACUGUGUGUGUGAGGUAAAGGGUGUAGUGGUGGCCUGGGCUGCUGAUGGAGGGGAAGCACCAGUAUCUAGGUGUCUUUGGUAGGGGUGUAUUUGGAAUUCUCGGGUGCCAA | 2.77
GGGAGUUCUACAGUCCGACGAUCCAAGAUUCUAGAAAUCAAAGGAGCCAUACAAUCCGGCAGGAGGCAGUGACUGUGGUCUCAGUGCUGGGAGCCCAGGAGGAACCGUCAUGCCUUACCUCCUUCUAAUGGGUUGGAAUUCUCGGGUGCCAA | 0.501
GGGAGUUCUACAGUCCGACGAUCAAAUAGUUUUACUGAUAAUCCAAUCACUUGGAUAGUUAAUUUUAUUACUUUUUGUUUCCUUUUUAAUAUUUAUUCUUCCCGUUAAGGGUUUUUUGGCUAUAAAUUCGUACUGGAAUUCUCGGGUGCCAA | 0.443
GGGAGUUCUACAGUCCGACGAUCUUUGGUGACCCUGCUUAAGCAUUCCCACCGUGUCCCAGCUCUGCUCUAGGACUGCCUCCCACUGCGGCCCCUCACCUGACUUCAGGGUAUGGGGAGGGAGGGAGCCAGUGUGGAAUUCUCGGGUGCCAA | 0.28

A few entries again (series 1):
Sequence | E-score
ACATAAAT | -0.0644
CTTATTTC | -0.153
CGGTAAGA | 0.163
GGTAACGA | 0.035
AACCTACG | -0.0742
ACGTGAAG | 0.0251
ATAGGACC | -0.0569
CTCTCCGA | 0.0393
ACAAGGGA | -0.19
CTAGATAA | -0.288
GTTTATTA | 0.109
